Measured values from different studies.
Each numbered part is a random draw from the data of one study; scales do not carry over between parts.

Study 1 — method: RNA Bind-n-Seq; molecule type: RNA; medium: in vitro; tested at: 365 nM; baseline: no-protein control; reading: higher = stronger binding
Target: RNA binding protein fox-1 homolog 2, RRM domain, GST-SBP tag (RBFOX2, Homo sapiens, UniProt O43251-10, residues 100-194)
Notes: natural RNA segment, single round, ends assumed
Constant ends, left off below: GGGAGUUCUACAGUCCGACGAUC … UGGAAUUCUCGGGUGCCAA
Residues (chain): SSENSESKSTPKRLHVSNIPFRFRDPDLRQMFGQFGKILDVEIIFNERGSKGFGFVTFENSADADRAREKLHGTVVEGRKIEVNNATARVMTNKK
| Oligonucleotide | RBNS enrichment (R) |
| --- | --- |
| UUGUCUGUGGUGACCUGGGCAUGGGUGACAGGGCUCUCAUUUGCCCCUUGGUCUCUUUAUGCUGCUGAGUCCCCCUUUCCUGCCCUCCCUGGCUACUGGGUCAAUAAUCU | 0.462 |
| CACUUCCUGGAUGUUGCAAUAAUACAAACCAGUGUACCUCUGACCUCACCGGGAGAGCUGGGGCGCUUCGAAGAUAAUCCCUACCCUCUACAUCAAAUGCGGCUGAGGCA | 0.442 |
| AGUCCUCAGCCUCACAGCUUCCUUCCCUUUUCAGCAGGCUGAUGGAGACAUGCCACCAACAUAGACAGGUUGGUCACCGAUGGCCAUUUUCAUAAAUAUUUCUGUGGGCC | 0.526 |
| CUGGGCAUAGCAGAGUUCAACGAGGUUUCUACAGAAAAGUGCAAUCUUUGUUGUUUUUGUAUUUAUUUGUAUGUUCAGAUCCAAAGGAUCCGUUGUAAAAAUAUAUAUGU | 0.437 |
| AUGGCUUGUUCAUAGAAUGAUGCUACUGUGACUUCAAAACUGAUCUCAAGUAUUCUAGAAUCUGCUGGGACAUUGGGCUGUUUCUCAACUUAUGUGUCUACUUGGAGAGA | 0.408 |
| CCGCGCCCUACAGUACCUCAGGAUCAUGGCGGGUAGCAAGUAGCAUCCCACUGCAGUGAUGGAUAUGCAUCUUUUACUUCUUGCUCCUUCUGCCCCUGGGUCCAUGUAUC | 0.89 |
| UGACAGAAUAAUUUUGGAAGAGGAAGCCUCAUCAAAAGCUCACACAAAAUAGAGCUUCCCAUGGUGUGCCCUAUCCUAGGUUUAAGAAAACACGUAUGAAGUUUAUGCUG | 0.291 |
| GAGAAACCCAUUCCACAUUAACAAAUUUAUUACAGUACAGGGAACAUGGAAUAAAGGAAAGUUUACUCUUCUGAUUAUAAGCUGAGGAUGCUAUGUUGCAGUUUGUUUGC | 1.43 |
| CCACCGGGCGCAUGCCUCCCAGGCCACCUCAGUCUCACCUGCCGGCUCUGGGCUGGCUGCUCCUAACCUACCUCGCCGAGCUGUCGGAGGGCUGGACAUUUGUGGCAGUG | 5.81 |
| CACGGAGAGGCAGGUGUGGCGUAAGGCCUCACUCCCGGCUGGGAAGGUCUCUGAUCACACAGAAGCAGCCCUGCCCAGCCUGGUCAUUUGCUGUCCGCUUUUCUCUGUGA | 0.345 |
| ACACCAUGUUGGCCAGGCUGGUCUCGAACUCCUGACCUCAAGUGAUCCACCCGCCUCAGUCUCCCAAAGUGCUGAGAUUACAGGCAUGAGUCACUACGCCCGGCCCAUGU | 0.199 |
| UGGAGUAUUAACAACCAGAAAGAAAGUUUGGAUAUUACCUUUUAACUACUAGUUAACAUCAUGCUUGAUCAACAUUUGCUCCUAGUUAUCACCAUUAAAUUAAGACCUUA | 0.414 |

Study 2 — method: Spec-seq; molecule type: double-stranded DNA, one strand shown; medium: in vitro; tested at: not given; notes: whole probe, mean of replicates; baseline: not given; reading: lower = stronger binding; constant ends, left off below: GAGTCGTCTCGTCAGCAC … CCGTAGAGCACTCAGGTC
Target: POU, POU domain (Salpingoeca helianthica)
Construct (chain): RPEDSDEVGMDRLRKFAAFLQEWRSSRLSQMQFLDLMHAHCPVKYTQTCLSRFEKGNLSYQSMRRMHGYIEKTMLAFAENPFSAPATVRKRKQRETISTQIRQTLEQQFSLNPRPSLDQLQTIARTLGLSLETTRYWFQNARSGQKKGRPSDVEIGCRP
| Oligonucleotide | relative binding energy [ln ratio] |
| --- | --- |
| ATGCGGTT | 1.39 |
| ATGCCCTT | 1.23 |
| ATAAATAT | -0.109 |
| ATCATGAT | 1.05 |
| ATGCTGTT | 1.11 |
| ATGCCCAA | 1.27 |
| CCTGTAAT | 0.467 |
| TCAGTAAT | 0.53 |
| AAGCTAAT | 0.688 |
| GCTGTAAT | 0.48 |
| GGCCTAAT | 0.592 |
| ATGCCCGC | 1.34 |
| CTACTAAT | 0.542 |
| ATGCGCTG | 0.835 |
| ATATAAAT | 0.553 |
| ATGCGTTC | 1.07 |
| ATGGTTAT | -0.203 |
| ATAAAGAT | 0.543 |
| ATCACTAT | 0.889 |
| GAAGTAAT | 0.7 |
| ATGCTCGA | 1.33 |
| ATTACAAT | 0.382 |
| CGAATAAT | 0.266 |
| ACGCTAAT | 0.45 |
| ATTTTGAT | 0.821 |

Study 3 — method: RNA Bind-n-Seq; molecule type: RNA; medium: in vitro; tested at: not given; notes: RNA with constant flanks, ends assumed; baseline: input RNA pool; reading: higher = stronger binding
Target: RING finger protein unkempt homolog, zinc fingers 1-6, GST-SBP tag (UNK, Homo sapiens, UniProt Q9C0B0, residues 30-357)
Constant ends, left off below: GGGAGUUCUACAGUCCGACGAUC … CAACAGAGGAUUGAGCAUCA
Residues (chain): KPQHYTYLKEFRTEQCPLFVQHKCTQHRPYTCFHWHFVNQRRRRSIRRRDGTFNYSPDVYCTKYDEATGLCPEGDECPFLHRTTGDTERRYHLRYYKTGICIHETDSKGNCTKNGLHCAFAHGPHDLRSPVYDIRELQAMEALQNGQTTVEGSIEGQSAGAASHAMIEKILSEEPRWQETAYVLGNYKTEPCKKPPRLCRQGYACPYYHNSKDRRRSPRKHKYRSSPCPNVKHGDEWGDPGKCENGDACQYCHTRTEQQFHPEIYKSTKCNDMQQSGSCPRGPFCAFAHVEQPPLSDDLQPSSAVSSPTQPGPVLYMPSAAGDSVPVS
| Oligonucleotide | bound/input enrichment |
| --- | --- |
| AAAGUAUUGGGCACUAGGAAAUUGAUGCAUGUUGCUUAUGAAGAAUUUGAAAAAGUUAUGGCCGCAUGCUUUGAAGUUUUUCAGACUUGGGAUGAUGAGUAUGAGAAACUUCAGGUAUUG | 1.17 ratio |
| CGUCCCGUCCGCGUGGUGUGAAGCGGCGCUGGAGGCUUAGUCGUAUAGUCUUCCGUCACUCCGCUGACCAUGGGCAACUUUCUGGGAUCCAGCGAGCGACAUGGUAAAUGAGCUCCAGAA | 0.0704 ratio |
| CCUGAAGAAAACCCUGGGUCACCUUCUAGAGAAUCACCUCUUUCAGCACCUUCAGAUCAUUCUCCGAUCCAAGGUGUAAUACCUUUUCAGUGUAUCAUGGGUGGUCUUGUUCAUCCCCUU | 0.0878 ratio |
| UUAAGAAAAAUGCCUCACAUUAAACAUGUGGAUCUAAGGUUGAACGUAAUUAGGAAGCUGACCGCAGAUGAAGUGGACUUUCUACAGCAUGUUACUCAGCUUGACCUACGAGACAAUAAG | 0.192 ratio |
| AUUAUAUAUGAUCGUUUUUCUGAUCCUAAGUUUGUUGAGCAGUUAAUCACAUUUCUAUCUUCCGAAGACAGAAAAGGAAGAGAUAAGUUUAGUCCCCGGCGUUUCUGCCUCUUUAAGGGU | 0.27 ratio |
| AAUUAUUUUUCCUUGCUCAUGGGCUGGAUGGGAAUUAUCCCUCCUCCGGUGCAGUGUCAUCACCGACUAUCCAUGACAGAUGAUAGCAAGAAGCAAGAUCUUAGUUCAUCAUUGACAGAU | 0.201 ratio |
| CUCCGAGCUGCUAAUAUUCUUGUAGGAGAAAAUCUUAUAUGCAAAAUAGCAGAUUUUGGCUCCGCAAGAUUAAUUGAAGACAAUGAAUACACGGCAAGACAAGGUGCAAAAUUUCCAAUC | 0.221 ratio |
| GUCCAAGCACAGUGUGACUGCUGUUUUUUAUACUGGCAUCGCGCUGUCUUCCCGAUUUAUUCCGAUGAUGUAUAUGAAAAUGCUGUCGAUGCAGCCAGAUUACAUUACAUGUUCAGUGCU | 0.166 ratio |
| UUAAAAAAAUCACUAAAUUGUGCCUAAAGAACAUAACUGCCAUAUUAAUGUUUUUAUUUCUACCGUAUUAGAAAAACAUUUAAUACUUGUAGCAUUGAUGUGUUGAUUUGAUACCAGUUG | 0.258 ratio |
| UCCUAGAGCCCAGUAGUUUUGACUUGUGUGAUGGGGACACAGUACAGCCUGAAGCUUCUUUCCGUCUCAGCACGGAGGGGCAAUGCCACUGGGUAGGACUUCUACUUCUUGUUUUUCCUC | 0.206 ratio |
| GAAACUCCCCAUUGUCACUGAGAACCACCAAAUCUGACUUUUACAUUUGGUCUCAGAAUUCCGGUUCCUGCCCUGUUGGUUUUUUUUUUUUUUUUUUAAACAGUUUUCAAAAGUUCUUAA | 1.31 ratio |

Study 4 — method: universal PBM; molecule type: double-stranded DNA, one strand shown; medium: in vitro; tested at: 600 nM; reading: higher = stronger binding
Target: Sal-like protein 4, full length isoform A (SALL4, Homo sapiens, UniProt Q9UJQ4, residues 1-1053)
UniProt Q9UJQ4, sequence (whole entry, looked up): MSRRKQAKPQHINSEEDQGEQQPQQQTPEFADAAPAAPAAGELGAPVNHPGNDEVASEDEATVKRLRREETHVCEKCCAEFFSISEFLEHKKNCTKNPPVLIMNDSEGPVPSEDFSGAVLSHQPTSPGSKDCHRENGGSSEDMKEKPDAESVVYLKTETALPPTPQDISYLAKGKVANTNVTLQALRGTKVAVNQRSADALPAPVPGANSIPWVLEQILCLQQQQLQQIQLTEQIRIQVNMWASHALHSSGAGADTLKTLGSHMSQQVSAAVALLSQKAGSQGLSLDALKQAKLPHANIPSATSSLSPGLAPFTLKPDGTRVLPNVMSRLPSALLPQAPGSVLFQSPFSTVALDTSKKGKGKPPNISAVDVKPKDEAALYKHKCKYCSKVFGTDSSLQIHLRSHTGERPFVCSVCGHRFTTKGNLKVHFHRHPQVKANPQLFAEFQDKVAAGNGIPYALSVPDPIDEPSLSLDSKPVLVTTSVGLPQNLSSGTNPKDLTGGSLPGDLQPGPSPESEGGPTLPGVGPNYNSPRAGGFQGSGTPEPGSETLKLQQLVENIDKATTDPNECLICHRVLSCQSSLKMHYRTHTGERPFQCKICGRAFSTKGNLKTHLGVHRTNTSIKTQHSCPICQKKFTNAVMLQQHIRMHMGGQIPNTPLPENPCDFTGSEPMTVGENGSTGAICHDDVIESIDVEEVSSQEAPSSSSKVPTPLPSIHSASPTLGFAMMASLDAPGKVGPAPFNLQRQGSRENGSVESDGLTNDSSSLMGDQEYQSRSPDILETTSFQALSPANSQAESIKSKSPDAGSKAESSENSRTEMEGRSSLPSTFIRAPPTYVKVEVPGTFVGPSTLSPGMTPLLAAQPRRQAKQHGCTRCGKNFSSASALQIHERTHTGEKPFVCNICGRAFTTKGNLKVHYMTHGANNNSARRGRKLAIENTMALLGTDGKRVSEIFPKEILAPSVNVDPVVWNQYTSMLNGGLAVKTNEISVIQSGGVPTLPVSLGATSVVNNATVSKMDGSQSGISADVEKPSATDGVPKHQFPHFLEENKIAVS
Notes: 8-mer, flanks averaged, mean of replicates
| Oligonucleotide | E-score |
| --- | --- |
| TACCAAAA | 0.226 |
| GGCCTACC | -0.309 |
| CTCCTTTC | -0.0695 |
| CGACTTAG | 0.00324 |
| ACTCGTAG | 0.0197 |
| AATTGGTC | 0.17 |
| GCGTACAA | -0.0611 |
| GAAAACCA | 0.0359 |
| GCATTAAC | 0.113 |
| AGTTCCGA | -0.107 |
| CCCAGTAG | -0.0937 |
| ATCCTCAA | 0.111 |
| GAGGAGAA | -0.0162 |
| AGGGCTGC | -0.278 |
| CTGTCCAC | -0.144 |
| GGGGCCAC | -0.331 |
| GGGACTAA | 0.00668 |
| CAGTGCGC | -0.27 |
| GGATATAA | 0.264 |
| GCTGCCAC | -0.217 |
| CTCGAAGC | -0.201 |
| AATATCTA | 0.361 |
| AGAAGGAC | -0.0864 |
| CATCGGAC | -0.281 |
| CGCAAAAG | -0.00559 |
